Measurements pooled from the literature.
Each numbered part is a random draw from the data of one study; scales do not carry over between parts. Changes are numbered by the printed parent chain.

Series 1 — target: CREBRF, bZIP domain (human); technique: DHFR protein complementation; medium: yeast; relative to: wild-type JUN-FOS pair; direction: higher = stronger binding
Notes: single substitutions, most at no-binding floor
Starting sequence: JUN, bZIP domain (human); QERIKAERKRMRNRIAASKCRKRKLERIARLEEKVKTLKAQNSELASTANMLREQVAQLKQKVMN; partner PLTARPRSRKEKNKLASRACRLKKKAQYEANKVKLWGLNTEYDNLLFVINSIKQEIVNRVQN
For `T37P`, the binding fitness was -1.51 natural log.
`V35G` has a binding fitness of -1.5 natural log.
For `L38F`, the binding fitness was -1.49 natural log.
The binding fitness of `S47M` is reported as -1.45 natural log.

Series 2 — technique: protein binding microarray; molecule type: double-stranded DNA, one strand shown; medium: in vitro; concentration: not given; relative to: not given; direction: higher = stronger binding
Target: Histone acetyltransferase KAT6A, both winged helices, GST fusion (KAT6A, Homo sapiens, UniProt Q92794, residues 1-181)
Notes: 8-mer, flanks averaged, mean of 2 arrays, mostly near background
Residues (chain): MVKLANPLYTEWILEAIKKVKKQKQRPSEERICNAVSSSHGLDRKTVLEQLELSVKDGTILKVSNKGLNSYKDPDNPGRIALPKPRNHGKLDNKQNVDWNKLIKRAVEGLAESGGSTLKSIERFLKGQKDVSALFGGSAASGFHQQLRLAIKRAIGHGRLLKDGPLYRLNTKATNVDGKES
With `TCACCGGA` the E-score was 0.0641.
`CAACGCCC` has an E-score of 0.107.
The E-score of `CAATAGGA` is reported as -0.136.
`AACTCCAT` has an E-score of -0.073.
`ATGTGGAG` has an E-score of -0.153.
`AACGGGAC` has an E-score of 0.243.
The E-score of `AGATATTG` is reported as -0.212.

Series 3 — technique: protein-binding microarray; molecule type: double-stranded DNA, one strand shown; medium: in vitro; concentration: 0.8 µM; notes: whole 60-bp probe, no competitor; direction: higher = stronger binding; all sequences stand within: … GTCTTGATTCGCTTGACGCTGCTG
Target: Centromere-binding protein 1, full length, N-terminal tag (CBF1, Saccharomyces cerevisiae, UniProt P17106, residues 1-351)
Sequence of UniProt P17106 (whole entry, looked up): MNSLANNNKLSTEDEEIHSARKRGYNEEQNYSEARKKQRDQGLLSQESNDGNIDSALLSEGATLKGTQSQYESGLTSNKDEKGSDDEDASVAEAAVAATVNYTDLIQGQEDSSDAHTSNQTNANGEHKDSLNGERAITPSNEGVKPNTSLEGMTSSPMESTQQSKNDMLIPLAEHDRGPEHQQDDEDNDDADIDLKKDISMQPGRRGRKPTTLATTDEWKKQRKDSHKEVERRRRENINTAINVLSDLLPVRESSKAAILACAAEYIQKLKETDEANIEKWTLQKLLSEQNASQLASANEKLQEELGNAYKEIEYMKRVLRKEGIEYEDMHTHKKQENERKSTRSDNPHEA
`GAAATACCTTCGTAAAACGTGACGACTTTCATATAG` gave a fluorescence intensity of 1810 a.u.
With `GAAGTACGTTTGTACGAGGTGACGCGTTACTAATAG` the fluorescence intensity was 503 a.u.
The fluorescence intensity of `CTATGTCTTTTCTACCACATGCACAATGAAAGCTTC` is reported as 872 a.u.
`CTATGGTTAAGTCATCAGGCGGCGCTCTTGAAGTTC` has a fluorescence intensity of 524 a.u.
The fluorescence intensity of `CTAGTAATAAAAAAATTCATGATGCTATGTCCATTC` is reported as 515 a.u.

Other studies, line by line
With `PhoQ, residues 284 288 289 292 302 303 AAQSYM` the fold induction was 4.36 (PhoP, residues 12 14 15 18 19 LHSVW (Escherichia coli, UniProt P23836); Sort-seq, item: YFP reporter; E. coli; PhoQ-PhoP variant library, together with: 10 µM Mg2+; relative to: high Mg2+ state, higher = stronger signaling).

Some of these lines once more (series 3):
The fluorescence intensity of `CTATGTCTTTTCTACCACATGCACAATGAAAGCTTC` is reported as 872 a.u.
